# Assay results of several laboratories.
# Every numbered part comes from another study and shows a few of its results, in no order.
# UniProt P00519, sequence (whole entry, unmodified, looked up): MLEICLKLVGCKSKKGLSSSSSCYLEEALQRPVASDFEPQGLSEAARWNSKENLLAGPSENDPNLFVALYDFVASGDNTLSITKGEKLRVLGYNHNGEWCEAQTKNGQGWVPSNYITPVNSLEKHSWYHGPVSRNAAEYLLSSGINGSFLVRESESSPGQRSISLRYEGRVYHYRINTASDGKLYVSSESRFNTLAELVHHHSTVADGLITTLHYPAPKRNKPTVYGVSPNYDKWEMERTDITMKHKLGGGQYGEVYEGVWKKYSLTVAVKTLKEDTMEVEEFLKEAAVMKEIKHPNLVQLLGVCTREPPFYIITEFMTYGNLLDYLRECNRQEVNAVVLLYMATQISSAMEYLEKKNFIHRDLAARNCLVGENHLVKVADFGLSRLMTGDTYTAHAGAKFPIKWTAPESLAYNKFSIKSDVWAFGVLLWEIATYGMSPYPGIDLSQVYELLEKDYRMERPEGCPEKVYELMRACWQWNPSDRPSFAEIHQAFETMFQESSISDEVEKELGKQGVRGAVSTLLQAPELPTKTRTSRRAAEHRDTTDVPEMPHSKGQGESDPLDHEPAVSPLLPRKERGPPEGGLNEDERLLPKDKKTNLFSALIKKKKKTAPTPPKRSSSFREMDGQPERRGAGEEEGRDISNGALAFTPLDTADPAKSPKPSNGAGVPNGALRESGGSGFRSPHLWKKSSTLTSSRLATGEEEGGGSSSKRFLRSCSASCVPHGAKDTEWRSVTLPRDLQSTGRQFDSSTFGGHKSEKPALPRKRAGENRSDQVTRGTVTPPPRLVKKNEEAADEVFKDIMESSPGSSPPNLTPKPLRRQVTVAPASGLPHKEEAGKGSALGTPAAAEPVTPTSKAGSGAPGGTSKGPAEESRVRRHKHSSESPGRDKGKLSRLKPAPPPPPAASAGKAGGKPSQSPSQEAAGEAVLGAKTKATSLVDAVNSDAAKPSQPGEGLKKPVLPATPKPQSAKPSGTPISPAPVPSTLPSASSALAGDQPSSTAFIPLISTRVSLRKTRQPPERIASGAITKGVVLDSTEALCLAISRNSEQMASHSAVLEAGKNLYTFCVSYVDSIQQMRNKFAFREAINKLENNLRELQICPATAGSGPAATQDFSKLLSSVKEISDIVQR

# Series 1
# Target: RNA binding protein fox-1 homolog 2, RRM domain, GST-SBP tag (RBFOX2, Homo sapiens, UniProt O43251-10, residues 100-194)
# Technique: RNA Bind-n-Seq
# Form: RNA
# Sample: in vitro
# Concentration: 365 nM
# Notes: natural RNA segment, single round, ends assumed
# Relative to: no-protein control
# Direction: higher = stronger binding
# Constant ends, left off below: GGGAGUUCUACAGUCCGACGAUC … UGGAAUUCUCGGGUGCCAA
# Residues (chain): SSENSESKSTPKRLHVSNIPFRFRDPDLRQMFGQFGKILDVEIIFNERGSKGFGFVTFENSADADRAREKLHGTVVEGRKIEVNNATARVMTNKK
Sequence,RBNS enrichment (R)
GUUUUUACAGACAACAUCGAGUAAUGGCUUGUAAAUGUGAAUUUUGCCAGAGGUGGUUUUUGAACAGGAAAAUCAUAAUUCAUAUCAUUGGAGAAGUAUUUAUUUUCAAA,0.517
UAACAGACAUUUCAGUUUUACCGUGCUCAUUUCUUUUUGCUGACUUAAGGUCAGAACUUUUACAGACAACAAACAACCCUAGGGUUUCUUUUUCCAGUUUACACAGACCG,0.678
UGUCAGAAAUGUACAAUUUUAGGGUAUGUUUAGAUUAAAUAUUUUUUAUUUUUAAGUUACCAGGCACUUUUCAUGCUAUUUAAGACUAUAUAUCAAAUUGUGCACUUUAA,0.738
UUGUAUUUUCAAAUAAAUAAGUUUGUGAAAGGUUUCCAUCCUCUACUGUGGUCCAGAAAUCAAUGUGUUUGUCUGACAAAAAAAAUAAUAAAAUAAACUGUUUUGAACAG,0.77
AGGUGGGUAGGAAGCUGUGAGUAUGACUUGAAGAAAAAUAUCCUUUUCAGUGACAAAUCAGAGUUUCUUACAAGUUAUUGUCCUGCUCCCUUCCAAGUUGUCUUGAAGAA,0.617
UUCCUGUUUUAUGUCUGUACCUCGUCCACCCCUCAGGUAAUACCUGCCUCUCACAGGUACAGCUGUUUCUUGGAAAUCCUCCAACCAAAUAGCAGUUUUCCUAACUUGAU,0.315
AACAGGAGUGCUUUACCCAAGUCAGUCAUGGAUAUGAUAUCACUGCUCUUUAUUUAAAAGUAAACUUUGGGCACAGGAACCAUAUGGGAACAUUCAGCUUGUUUAAAAAA,0.921
GGUUGACAUGAUACACUAUGGCCUUAGAAAAGGGCCAGGUGAAACCCCAAGCUAAUCACUGCGGUCUUUCAGAGCCGGACAGACAGGUGCCAGCAGAGCCCGGGGCUCAC,0.448

# Series 2
# Target: Ras GTPase-activating protein-binding protein 1, C-terminal RGG region (G3BP1, Homo sapiens, UniProt Q13283)
# UniProt Q13283, sequence (whole entry, looked up): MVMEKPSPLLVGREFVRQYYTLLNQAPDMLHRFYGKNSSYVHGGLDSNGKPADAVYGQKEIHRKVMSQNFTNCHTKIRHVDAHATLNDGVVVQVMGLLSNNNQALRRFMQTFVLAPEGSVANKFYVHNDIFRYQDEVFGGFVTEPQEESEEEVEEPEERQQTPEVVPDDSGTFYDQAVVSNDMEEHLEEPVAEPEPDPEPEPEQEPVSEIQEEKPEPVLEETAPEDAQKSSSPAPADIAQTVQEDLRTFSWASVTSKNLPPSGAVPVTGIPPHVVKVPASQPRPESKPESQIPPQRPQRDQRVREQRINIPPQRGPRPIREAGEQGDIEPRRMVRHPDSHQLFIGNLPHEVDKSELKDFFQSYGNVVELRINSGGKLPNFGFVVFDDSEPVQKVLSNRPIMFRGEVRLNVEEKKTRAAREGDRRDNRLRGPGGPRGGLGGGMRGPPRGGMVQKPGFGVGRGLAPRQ
# Technique: RNA Bind-n-Seq
# Form: RNA
# Sample: in vitro
# Concentration: 1 µM
# Notes: whole 134-nt RNA, ends assumed
# With: 150 mM KCl
# Relative to: input library
# Direction: higher = stronger binding
# Constant ends, left off below: GGGAGUUCUACAGUCCGACGAUC … UGGAAUUCUCGGGUGUCAAGG
Sequence,log2 enrichment
UUUGUCCCUGCUCAGGAUGAGACUUCUGUGAGCAGCGAGGAUUUUGAUAUGAGCGACUCCACAUGGAUGUCAGCUGACCCGCACCUGGCC,-0.881
AAGUCCUGUGCUACACAUCGUAUGUACCGAAUCGGGAAAAGGAAAAGGGAAAAGGGAAAGUAUUAUGUUACGCCGUUCGGAUCUGCACUU,-1.67
UAACUUUAGAGGAGGAUCUGAUGGAUAUGGCAGUGGACGUGGAUUUGGGGAUGACUAUAAUGGGUAUGGAGGAGGACCUGGAGGUGGCAA,-0.66
CCUCAAGUCCUGUGCUACACAUCGUAUGUACCGAAUCGGUUGGGUUGGUUGGAAAGUAUUAUGUUACGCCGUUCGGAUCUGCACUUCCAG,-0.371
UUUGCUUGCAGUAUCUGUUUCUCUUCCUAGGCUCAAGUUGGUGACCCAAGCCUAUUGUAAACAAGUGAUUAUCUCAAAGGGAGAUGCCAA,-0.861
UGGCCCUGGUGGCAUGCGGGGAGGAAGAGGUGGCCUCAUGGAUCGUGGUGGUCCGGGUGGAAUGUUCAGAGGUGGCCGUGGUGGAGACAG,1.88
AAGUCCUGUGCUACACAUCGUAUGUACCGAAUCGGGGAGGGGAAAGGGGUUUGGGGAAAGUAUUAUGUUACGCCGUUCGGAUCUGCACUU,2.82
UAGAUAUCCAUAGAAAAGAGAACUCUGGAGCUGCAGAGAAGCCUGUCACCAUCCAUGCCACCCCAGAGGGGACUUCUGAAGCAUGCCGCA,-1.12

# Other studies, line by line
Substance,target,assay,system,setting,how to read,quantity,value
N#CC1(c2ccccn2)CCN(Cc2cc(C(=O)O)c(=O)n3ccccc23)CC1,"Tyrosine-protein kinase ABL1, phosphorylated (ABL1, Homo sapiens, UniProt P00519, E255K)","binding, competition with immobilised ligand",,1 µM,,remaining binding,100%
"PhoQ, residues 284 288 289 292 302 303 WSHMKI","PhoP, residues 12 14 15 18 19 LHHVQ (Escherichia coli, UniProt P23836)","Sort-seq, item: YFP reporter",E. coli,"PhoQ-PhoP variant library, with: 10 µM Mg2+","relative to: high Mg2+ state, higher = stronger signaling",fold induction,0.802

# For quick reference, copied from above (series 2):
Sequence,log2 enrichment
AAGUCCUGUGCUACACAUCGUAUGUACCGAAUCGGGAAAAGGAAAAGGGAAAAGGGAAAGUAUUAUGUUACGCCGUUCGGAUCUGCACUU,-1.67
